# Measured values collected from several papers.
# Each numbered part is a random draw from the data of one study; scales do not carry over between parts. Substitutions count along the parent as printed.

# Set 1
# Target: Sal-like protein 4, full length isoform B (SALL4, Homo sapiens, UniProt Q9UJQ4-2, residues 1-616)
# Technique: universal PBM
# Molecule type: double-stranded DNA, one strand shown
# Medium: in vitro
# Tested at: not given
# Setting: 8-mer, flanks averaged, mean of replicates
# Direction: higher = stronger binding
Strand,E-score
AGCCTCCC,-0.199
ACTCAGCT,-0.0387
CATGTTCA,0.141
AAGGCCAT,0.0037
GTAGTCAC,-0.0581
GCATCGGA,-0.136
AGTCGCGC,-0.207
ATATTGTG,0.311
CTATTAAC,0.231
CTGCTAAC,-0.0411
AAGCAGTC,-0.147
GCGGCCTA,-0.266
CAGGATAG,0.00029
GGCTTCAA,-0.00297
GTCCGAAA,0.00425
GCAGACGA,-0.0193
ATGTGAAG,0.262
AACTCGGG,-0.307
CATCAATA,0.338
ACGCCTAC,-0.254
CGCTCATA,0.0573

# Set 2
# Target: CCND3, cyclin fold, Cln2 fusion (human)
# Technique: yeast growth competition, sequencing
# Medium: yeast
# Setting: weak parent motif
# Relative to: not given
# Direction: higher = stronger binding
# Starting sequence: CDKN1A docking peptide (human); SKACRRLFGPVDS; partner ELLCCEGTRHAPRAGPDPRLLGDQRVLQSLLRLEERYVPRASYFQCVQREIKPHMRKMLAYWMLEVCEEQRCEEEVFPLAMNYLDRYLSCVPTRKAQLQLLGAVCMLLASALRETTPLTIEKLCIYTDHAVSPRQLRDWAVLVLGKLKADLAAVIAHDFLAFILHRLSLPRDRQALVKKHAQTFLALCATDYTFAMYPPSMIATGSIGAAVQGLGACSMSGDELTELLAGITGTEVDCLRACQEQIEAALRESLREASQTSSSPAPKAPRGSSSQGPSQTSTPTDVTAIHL
Substitution,normalised enrichment score
SKACDRLFGPVDS [R5D],-0.259
SGACRRLFGPVDS [K2G],0.348
SKACRRLGGPVDS [F8G],0.0777
SKACQRLFGPVDS [R5Q],0.155
SKACRDLFGPVDS [R6D],0.442
SKACRYLFGPVDS [R6Y],0.279
SKACRREFGPVDS [L7E],-0.00611
SKACHRLFGPVDS [R5H],0.0667
SKACRKLFGPVDS [R6K],0.574
SKACCRLFGPVDS [R5C],-0.0468
SPACRRLFGPVDS [K2P],0.587
SKMCRRLFGPVDS [A3M],-0.0507
SKSCRRLFGPVDS [A3S],-0.00268
SKACRNLFGPVDS [R6N],0.388
SKACRRLFAPVDS [G9A],0.173
SKACRRLFSPVDS [G9S],0.306
SKACRRSFGPVDS [L7S],0.03

# Set 3
# Target: RNA binding protein fox-1 homolog 2, RRM domain, GST-SBP tag (RBFOX2, Homo sapiens, UniProt O43251-10, residues 100-194)
# Technique: RNA Bind-n-Seq
# Molecule type: RNA
# Medium: in vitro
# Tested at: 365 nM
# Setting: natural RNA segment, single round, ends assumed
# Relative to: no-protein control
# Direction: higher = stronger binding
# Target sequence (chain): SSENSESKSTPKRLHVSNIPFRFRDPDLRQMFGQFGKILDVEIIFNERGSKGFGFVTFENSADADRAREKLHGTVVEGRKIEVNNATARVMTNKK
Strand,RBNS enrichment (R)
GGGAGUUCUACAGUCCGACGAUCGCUUUGAAAAGUAUAAGGUGCCAUCCACAUAACCUGGUGUUCACGAGAACACACUAAAGGACUCCUGAGUCACUACCACAGCCACCUGGAAACCACAAGGCAUUUGAUGCUGGAAUUCUCGGGUGCCAA,0.334
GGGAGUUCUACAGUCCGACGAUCAAAGGUGAUAAACAUGAAGUAACUGACCCAGAGUUGGUUUAUCUUUGAGUAAACCUUUUUAGUUUUUACCUCAGCAGAGUGUUAGUAUGGCUGCUUUGCAGUCCCUGCUAUGGAAUUCUCGGGUGCCAA,0.286
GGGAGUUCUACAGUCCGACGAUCCUUUGACAUAACUAGGAUCCAUUAUUUCCCCUGAAGGCUUCUUGUUAGAAAAUAGUACAGUUACAACCAAUAGGAACAACAAAAAGAAAAAGUUUGUGACAUUGUAGUAGUGGAAUUCUCGGGUGCCAA,0.545
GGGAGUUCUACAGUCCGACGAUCAAAAGAAAAAGAACAAAGAAACCCUUUAUUUCAUUAAAUGAUUUUUUCUGGUGGUUGUCAAGAAACAAAAGACCAAAAGAGCCUUUUUGUCUUUCUUUUUUAUUUUUUAAUGGAAUUCUCGGGUGCCAA,0.611
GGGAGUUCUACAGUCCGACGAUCCACUGCGAGAUGUGCAGCCUCCCCCGGACCUAGGGCUCUGGGCCUCUGCUGCAUGGGACUGGGCCAGCCCAGCCCUCUGAAGUCUGGAGCGCCACAUGUUCCCUAUAAGGUGGAAUUCUCGGGUGCCAA,0.345
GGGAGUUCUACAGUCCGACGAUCUUUGACUAAUGUGUCUGGACUACUUGUAACUAGUUUUAUGAGCCUGUCAUAAUUUGCCAGGGUUCCCAUAUGUAUAUUAAGUUAAUUAAAUUCAGAAUUAAAAUAAUAAAUGGAAUUCUCGGGUGCCAA,0.965
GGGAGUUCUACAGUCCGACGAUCGGUAUGACUUUAUGUGUGGCAAAAACCCACAUUACCAAAGUAGUUUUUAACUACUGUAAUUUGUAAAUAAGUGUUGUGGCAGGUGGGAACCUUUAAAAGAUCAGUAAGAUUGGAAUUCUCGGGUGCCAA,0.558
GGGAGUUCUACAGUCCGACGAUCUCAGCCUAGCAGAGCUGAAAGGAGCAGGCUUGGCUUGGUAGAGAGGGGGGCAGAAAGGAGAUAAUCUCAAUGUGUUCUUUCCUGUAUGCCUUGGCUCUAACUCUGCUGCUUGGAAUUCUCGGGUGCCAA,0.685

# Set 4
# Target: Interferon regulatory factor 7, full length, phosphomimetic (IRF7, Homo sapiens, UniProt Q92985, residues 1-503, S471D/S472D/S475D/S476D/S477D/S483D/S484D/S487D)
# Technique: protein-binding microarray
# Molecule type: double-stranded DNA, one strand shown
# Medium: in vitro
# Tested at: 2200 nM top
# Setting: 60-bp whole probe
# With: salmon DNA 0.4 mg/ml
# Relative to: random background probes
# Direction: higher = stronger binding
# Shared flanks, not repeated: GCCTAGCAC … GTCTTGATTCGCTTGACGCTGCTG
# Target sequence (chain): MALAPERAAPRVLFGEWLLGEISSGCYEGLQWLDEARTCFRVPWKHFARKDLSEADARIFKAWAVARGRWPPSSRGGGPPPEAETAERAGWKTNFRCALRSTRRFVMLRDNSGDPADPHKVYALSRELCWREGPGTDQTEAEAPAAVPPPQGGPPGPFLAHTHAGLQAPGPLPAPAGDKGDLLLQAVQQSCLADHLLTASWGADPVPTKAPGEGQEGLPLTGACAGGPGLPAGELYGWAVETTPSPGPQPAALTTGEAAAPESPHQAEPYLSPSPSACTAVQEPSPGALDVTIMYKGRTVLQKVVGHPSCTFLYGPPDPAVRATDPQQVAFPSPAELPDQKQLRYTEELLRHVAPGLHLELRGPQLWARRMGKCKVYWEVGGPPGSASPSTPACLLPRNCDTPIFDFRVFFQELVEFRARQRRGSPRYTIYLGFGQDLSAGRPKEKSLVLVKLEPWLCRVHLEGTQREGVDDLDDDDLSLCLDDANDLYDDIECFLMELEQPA
Strand,fitted relative affinity [z-score]
TCAGGAGTCAACTCTCTAACTGTGCTA,-0.527
CGAGGTCTCGCTATGTTGTCGTGCTAG,0.744
ATAGATTTCAGTCTCGATTAGTGCTAG,1.09
GACCGTATCCTTTTCCTGACGTGCTAG,1.89
TCAGATTTCAATTAGAAACTGTGCTAG,0.178
ATAGGTTTCGGTATCGGTTAGTGCTAG,7.4
CCTGTAATCCCAGCTACTCAGTGCTAG,0.667
GACTGTTTCGACACTGGGGACGTGCTA,2.26
TTAGATATCAGTATCGATCAGTGCTAG,0.0665
TTAGGACTGGGGATTCGGTTAGTGCTA,0.0795
GACGGTCTCGTTCTCCTGACGTGCTAG,1.41
CTAGGACTGGGTATCGGTTAGTGCTAG,-0.362
GACGGTTTCGACTTTCGCGACGTGCTA,7.35
TCATCTGTCAGTTTTGAACTGTGCTAG,1.14
GACGGACTGCAACTGCTGACGTGCTAG,-0.335
TTAGGTGTCGGGTATCGGTTAGTGCTA,0.323
GTCGGTCTCCTTATCCTGACGTGCTAG,1.88
GTAAACCATCCAAATGTTATGTGCTAG,0.465
TTAGGAATGCTTTTCCTTTAGTGCTAG,1.03
